Results from different studies.
Lines come from different studies, so protocols differ. Values joined by “and” are separate records of one study, mostly repeats; a detail may differ. Numbers after ± are the reported error.
Aldo-keto reductase family 1 member A1: Aldo-keto reductase family 1 member A1 (Bos taurus, UniProt Q3ZCJ2)
YAP1 WW1 domain: Transcriptional coactivator YAP1, WW1 domain (YAP1, Homo sapiens, UniProt P46937)
Kelch domain-containing protein 2: Kelch domain-containing protein 2 (UniProt Q9Y2U9)
T1: dsDNA; GGAAAAAATTTTTTCC
T2: T-box antiterminator RNA; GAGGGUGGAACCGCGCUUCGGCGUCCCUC

Under binding, `NC[C@@H]1O[C@H](O[C@H]2[C@@H](O)[C@H](O[C@@H]3[C@@H](O)[C@H](N)C[C@H](N)[C@H]3O[C@H]3O[C@H](CN)[C@@H](O)[C@H](O)[C@H]3N)O[C@@H]2CO)[C@H](N)[C@@H](O)[C@@H]1O` is recorded as “binds weakly” (T1, dsDNA; competitor, fluorescence intercalator displacement; pH 6.8, 20 °C, KCl 100 mM, with: thiazole orange).
For `C/C(=N/N=c1/scc(-c2ccc(Br)cc2)n1-c1c(C)cccc1C)c1ccc2c(c1)OCCO2`, the inhibition was 33.4% (Aldo-keto reductase family 1 member A1; enzyme activity, inhibitor, absorbance; 1 mM).
The ED50 of `C/C=C1/C[N+]2(C)CC[C@@]34C[C@H]5[C@@H]6C[C@H]7c8c(c9ccccc9n8C)C[C@@H]([C@@H]6CO[C@@]5(C)O[C@@]35[C@@H]2C[C@@H]1[C@@H](C(=O)OC)N5c1ccccc14)N7C.[Cl-]` (stereo partly drawn) is reported as > 20000 nM (Transcription factor p65 (RELA, Homo sapiens, UniProt Q04206); DNA binding, inhibitor, ELISA; HeLa nuclear extract).
For `COc1cc(/C=C/C(=O)CC(=O)/C=C/c2ccc(O)c(OC)c2)ccc1O`, the emission maximum was 562 nm (Protein kinase C epsilon type, C1B domain (PRKCE, Homo sapiens, UniProt Q02156); buffer; 5×1 µM, 1 h, 25 °C, protein excess).
For `CSCC[C@H](NC(=O)[C@@H]1CCCN1C(=O)[C@@H](NC(=O)[C@H](Cc1ccc(O)cc1)NC(=O)[C@H](C)NC(=O)[C@@H]1CCCN1C(=O)[C@@H]1CCCN1C(=O)[C@@H]1CCCN1C(=O)[C@H](CO)NC(=O)[C@H](Cc1c[nH]cn1)NC(=O)CN)[C@@H](C)O)C(=O)N[C@@H](CO)C(=O)O`, the TΔS was 2.63 ± 0.25 kcal/mol (YAP1 WW1 domain; binding, ITC; pH 7.0, 25 °C, WW1 domain).
For `CC(=O)c1ccc(NC(=O)OCC2OC(=O)NC2CN2CCN(c3ccccc3)CC2)cc1` (racemic), the Kd was 1800 nM (T2, T-box antiterminator RNA; FRET binding titration; 100 nM, 130 min, pH 6.5, 25 °C, NaCl 50 mM, single-site fit, with: MgCl2 5 mM).
The koff of `Nc1ncnc2c1ncn2[C@@H]1O[C@H](COP(=O)(O)OP(=O)(O)OP(=O)(O)O)[C@@H](O)[C@H]1O` is reported as 0.69 ± 0.02 s⁻¹ (Sodium/potassium-transporting ATPase subunit alpha-1 (ATP1A1, Canis lupus familiaris, UniProt P50997); dissociation from E1 state; dog; 4 °C, with: 45 mM Na+, NMG+ replacement, total 500 mM).
For `LRHYLNLLTRORY (acetyl-Leu28, acetyl-Leu31)`, “surface receptor depletion” read 49.5 ± 1.5% (neuropeptide Y receptor Y2 human; agonist; peptide, hY2-CHO; 100 nM, 30 min, 37 °C, with: PAO 30 µM; reference: no unlabeled agonist).
`Cc1ccc(O)c(C=NNC(=S)NCc2ccccc2)c1` has an inhibition of < 50% (Aldo-keto reductase family 1 member A1; inhibitor; Bos taurus (calf); 100 µM, with: D-glucuronate substrate).
`O=S(=O)(Sc1cccc(Cl)c1)c1cccc(Cl)c1` gave an inhibition of 93 ± 1% (tubulin; colchicine binding, [3H]colchicine binding; 50 µM, 10 min, 37 °C, with: [3H]colchicine 5.0 µM).
For `O=C(Nc1cccc(C(F)(F)F)c1)c1ccccc1NC(=O)C1CCCCC1`, the efficacy was 80% (Relaxin receptor 1 (RXFP1, Homo sapiens, UniProt Q9HBX9); cAMP level, agonist, HTRF; HEK293 cells expressing RXFP1; reference: forskolin 57.5 µM as 100%).
For `N=C(N)c1ccccc1`, the current change was 0.61 µA (Degenerin mec-4 (mec-4, Caenorhabditis elegans, UniProt P24612, A713T); ion current, two-electrode voltage clamp; Xenopus oocytes coexpressing MEC-2; 30 µM, -85 mV; reference: uninjected oocytes, positive inhibition, negative potentiation).
For `IINFEKL`, the Vmax was 379 ± 4 nmol/min/µg (Endoplasmic reticulum aminopeptidase 1 (ERAP1, Homo sapiens, UniProt Q9NZ08, F803R); L-AMC hydrolysis, activator; peptide; 100 µM, 5 min, pH 8.0, 27 °C, mutant F803R, with: L-AMC varied from 0 µM).
Under IC50, `Clc1cccc(Nc2nnc(-c3ccccc3)c3ccccc23)c1` is recorded as “inactive” (cGMP-inhibited 3',5'-cyclic phosphodiesterase 3A (PDE3A, Homo sapiens, UniProt Q14432); cAMP hydrolysis, inhibitor, fluorescence polarization; recombinant enzyme; up to 100 µM, 30 min preincubation, 30 °C, with: fluorescein-cAMP 25 nM).
`Brc1ccccc1SSc1ccccc1Br` gave an inhibition of 27 ± 3% (tubulin; colchicine binding, [3H]colchicine binding; 5 µM, 10 min, 37 °C, with: [3H]colchicine 5.0 µM).
For `EVIVFGG`, “fraction of protein bound” read 1.5% (Kelch domain-containing protein 2; native mass spectrometry; peptide, 200 mM ammonium acetate; 20 µM Kelch domain-containing protein 2, pH 7; reference: total Kelch domain-containing protein 2 signal).
`Cc1cc(C)c2cc(C#N)c(NCCCNC(=O)c3ccncc3)nc2c1` has a Vmax of 61 µM/s (Cystic fibrosis transmembrane conductance regulator (CFTR, Homo sapiens, UniProt P13569, del508-508); CFTR correction, corrector, iodide influx rate; FRT expressing YFP-H148Q/I152L; up to 25 µM, 16-20 h, 37 °C, with: forskolin 20 µM, genistein 50 µM).
The ΔG of `CC(C)C[C@H](NC(=O)[C@@H](NC(=O)[C@@H](N)[C@@H](C)O)C(C)C)C(=O)N1CCC[C@H]1C(=O)N1CCC[C@H]1C(=O)N1CCC[C@H]1C(=O)N1CCC[C@H]1C(=O)N[C@@H](Cc1ccc(O)cc1)C(=O)N[C@@H](CCCNC(=N)N)C(=O)N[C@@H](C)C(=O)N[C@@H](CCCNC(=N)N)C(=O)N[C@@H](CC(N)=O)C(=O)O` is reported as -6.6 ± 0.17 kcal/mol (YAP1 WW1 domain; binding, ITC; pH 7.0, 25 °C, WW1 domain).
With `GSRPQRLLWQTAVRHITEQRFIHGH` the koff2 was 67 s⁻¹ and 66.9 s⁻¹ (Calmodulin-1 (Calm1, Rattus norvegicus, UniProt P0DP29, D130A/D94A); Ca2+ dissociation, stopped-flow quin-2 fluorescence; peptide; 2 µM, pH 7.4, 22 °C, with: Ca2+-calmodulin complex).
For `VIVFGG`, “fraction of protein bound” read 5.4% (Kelch domain-containing protein 2; native mass spectrometry; peptide, 200 mM ammonium acetate; 20 µM Kelch domain-containing protein 2, pH 7; reference: total Kelch domain-containing protein 2 signal).
For `CC(C)C[C@H](NC(=O)[C@@H](NC(=O)[C@@H](N)[C@@H](C)O)C(C)C)C(=O)N1CCC[C@H]1C(=O)N1CCC[C@H]1C(=O)N1CCC[C@H]1C(=O)N1CCC[C@H]1C(=O)N[C@@H](Cc1ccc(O)cc1)C(=O)N[C@@H](CCCNC(=N)N)C(=O)N[C@@H](Cc1c[nH]cn1)C(=O)N[C@@H](CCCNC(=N)N)C(=O)N[C@@H](CC(N)=O)C(=O)O`, the TΔS was -7.19 ± 0.55 kcal/mol (YAP1 WW1 domain; binding, ITC; pH 7.0, 25 °C, WW1 domain).
`FLFGG`: “fraction of protein bound” 0.6% (Kelch domain-containing protein 2; native mass spectrometry; peptide, 200 mM ammonium acetate; 20 µM Kelch domain-containing protein 2, pH 7; reference: total Kelch domain-containing protein 2 signal).
For `Oc1ccc(/C=C/c2ccc3cc4ccccc4cc3c2)cc1O`, the fluorescence increase was 8.8 fold (Transthyretin, fibrils (TTR, Homo sapiens, UniProt P02766); binding, fluorescence emission; 1 µM, pH 3.0, with: 5 µM fibrils (monomer); reference: free compound).
The Emax of `CSCC[C@H](NC(=O)[C@H](CCC(=O)O)NC(=O)[C@@H]1CCCN1C(=O)[C@@H](NC(=O)[C@@H]1CCCN1)[C@@H](C)O)C(=O)N[C@@H](CCCNC(=N)N)C(=O)N[C@@H](CCC(=O)O)C(=O)N[C@@H](CCCCN)C(=O)N[C@@H](CC(C)C)C(=O)N[C@H]1CSSC[C@@H]2NC(=O)[C@@H](NC(=O)[C@H](Cc3ccc(O)cc3)NC(=O)[C@H](CCCNC(=N)N)NC(=O)[C@H](C)NC(=O)[C@@H]3CCCN3C(=O)[C@H](CC(N)=O)NC(=O)[C@@H](NC(=O)[C@H](C)NC(=O)[C@H](C)NC(=O)[C@H](C)N)[C@@H](C)O)CSSC[C@H](NC(=O)CNC(=O)[C@H](CO)NC(=O)[C@H](CC(C)C)NC2=O)C(=O)N[C@@H]([C@@H](C)O)C(=O)N[C@@H](CCC(N)=O)C(=O)N[C@@H](CCC(N)=O)C(=O)N[C@@H](CC(=O)O)C(=O)N[C@@H](CC(C)C)C(=O)N[C@@H](CC(C)C)C(=O)N[C@@H]([C@@H](C)O)C(=O)N[C@@H](CC(C)C)C(=O)N[C@H](C(=O)N2CCC[C@H]2C(=O)N[C@@H](Cc2ccc(O)cc2)C(=O)O)CSSC[C@@H](C(=O)NCC(=O)NCC(=O)N2CCC[C@H]2C(=O)N[C@@H](CCCNC(=N)N)C(=O)N[C@@H](Cc2c[nH]c3ccccc23)C(=O)N[C@@H](CO)C(=O)N[C@H](C(=O)N[C@@H](CCC(=O)O)C(=O)N[C@@H](C)C(=O)O)[C@@H](C)O)NC(=O)[C@H](C(C)C)NC(=O)[C@H](CCCNC(=N)N)NC(=O)[C@H](C(C)C)NC(=O)[C@H](CC(C)C)NC(=O)[C@H](C)NC(=O)[C@H](CCCNC(=N)N)NC(=O)[C@H](C(C)C)NC(=O)[C@H](Cc2ccccc2)NC(=O)[C@H](Cc2c[nH]cn2)NC(=O)[C@H](Cc2c[nH]cn2)NC(=O)CNC1=O` is reported as 94.8 ± 2.89% (Relaxin receptor 2 (RXFP2, Homo sapiens, UniProt Q8WXD0); cAMP production, agonist, CAMYEL BRET; HEK293 expressing RXFP2; 45 min, 37 °C; reference: forskolin 10 µM).
Under “fold reduction in binding”, `Nc1ncnc2c1ncn2[C@@H]1O[C@H](COP(=O)(O)OP(=O)(O)OP(=O)(O)O)[C@@H](O)[C@H]1O` is recorded as > 23 fold (spoIVA (Bacillus subtilis, UniProt P35149, K30A); ATP binding, filter binding; concentration not given, pH 7.5, 30 °C, Walker A mutant at highest concentration, with: 1 mM MgCl2; reference: wild type).
The ΔH of `CC(C)C[C@H](NC(=O)[C@@H](NC(=O)[C@@H](N)[C@@H](C)O)C(C)C)C(=O)N[C@@H](C)C(=O)N1CCC[C@H]1C(=O)N1CCC[C@H]1C(=O)N1CCC[C@H]1C(=O)N[C@@H](Cc1ccc(O)cc1)C(=O)N[C@@H](CCCNC(=N)N)C(=O)N[C@@H](Cc1c[nH]cn1)C(=O)N[C@@H](CCCNC(=N)N)C(=O)N[C@@H](CC(N)=O)C(=O)O` is reported as -15.9 ± 0.71 kcal/mol (YAP1 WW1 domain; binding, ITC; pH 7.0, 25 °C, WW1 domain).
With `Brc1ccc(SSc2ccc(Br)cc2)cc1` the inhibition was 11 ± 0.3% (tubulin; colchicine binding, [3H]colchicine binding; 5 µM, 10 min, 37 °C, with: [3H]colchicine 5.0 µM).

A few entries again:
For `C/C(=N/N=c1/scc(-c2ccc(Br)cc2)n1-c1c(C)cccc1C)c1ccc2c(c1)OCCO2`, the inhibition was 33.4% (Aldo-keto reductase family 1 member A1; enzyme activity, inhibitor, absorbance; 1 mM).
The ED50 of `C/C=C1/C[N+]2(C)CC[C@@]34C[C@H]5[C@@H]6C[C@H]7c8c(c9ccccc9n8C)C[C@@H]([C@@H]6CO[C@@]5(C)O[C@@]35[C@@H]2C[C@@H]1[C@@H](C(=O)OC)N5c1ccccc14)N7C.[Cl-]` (stereo partly drawn) is reported as > 20000 nM (Transcription factor p65 (RELA, Homo sapiens, UniProt Q04206); DNA binding, inhibitor, ELISA; HeLa nuclear extract).
For `COc1cc(/C=C/C(=O)CC(=O)/C=C/c2ccc(O)c(OC)c2)ccc1O`, the emission maximum was 562 nm (Protein kinase C epsilon type, C1B domain (PRKCE, Homo sapiens, UniProt Q02156); buffer; 5×1 µM, 1 h, 25 °C, protein excess).
For `CSCC[C@H](NC(=O)[C@@H]1CCCN1C(=O)[C@@H](NC(=O)[C@H](Cc1ccc(O)cc1)NC(=O)[C@H](C)NC(=O)[C@@H]1CCCN1C(=O)[C@@H]1CCCN1C(=O)[C@@H]1CCCN1C(=O)[C@H](CO)NC(=O)[C@H](Cc1c[nH]cn1)NC(=O)CN)[C@@H](C)O)C(=O)N[C@@H](CO)C(=O)O`, the TΔS was 2.63 ± 0.25 kcal/mol (YAP1 WW1 domain; binding, ITC; pH 7.0, 25 °C, WW1 domain).
